Measurements pooled from the literature.
Parts stem from different laboratories: compare values within a part only.

Set 1
Target: Fragile X messenger ribonucleoprotein 1, C-terminal low-complexity region (Fmr1, Mus musculus, UniProt P35922)
Technique: RNA Bind-n-Seq
Molecule type: RNA
Matrix: in vitro
Tested at: 200 nM
Setting: whole 134-nt RNA, ends assumed
Added: 150 mM KCl
Relative to: input library
Direction: higher = stronger binding
Measurement: log2 enrichment
Shared flanks, not repeated: GGGAGUUCUACAGUCCGACGAUC … UGGAAUUCUCGGGUGUCAAGG
GCAGGAAGUAAAAACAAAUGGAAAUGCUUCGGAUAGUGCCAGGGGUGGGGGUUGCUAAGGAAAGGGUGGGAUGGGAGUGGGUAAAGAGUU: 0.443
UUCACUCUUUGAAGGAACGUGGUACUUAGUUAGGGUGGAUGAAAAGCACAGAAGAACUUACGCUCGGCGUCCCACUCCAAAUGAUGACAC: 0.47
GCAAAAAGUAAAAACAAAUGGAAAUGCUUCGGAUAGUGGCAGGGGUGGGGGUUGCUAAGGAAAGGGUGGGAUGGGAGUGGGUAAAGAGUU: 0.534
CUGUGCUACACAUCGUAUGUACCGAAUCGGGGUUUUUGGGGAAAAAAAGGGGAAAAAGGGGAAAGUAUUAUGUUACGCCGUUCGGAUCUG: -0.263
CUGUGCUACACAUCGUAUGUACCGAAUCGGGGUUUUUUGGGGUUUUUUGGGUUUUUUGGGGAAAGUAUUAUGUUACGCCGUUCGGAUCUG: -0.218
AGUCCUGUGCUACACAUCGUAUGUACCGAAUCGGAAAAAAAGGUUUUUUUGGAAAGGAAAGUAUUAUGUUACGCCGUUCGGAUCUGCACU: -1.6
CACAGACAACACGCACCCACACAGACACAGAGGGAAGGGGUUGGGAUGGGGACAGGGUGCACAGCAGGGCGGGGUAGGACCCCAGCCCGU: 1.33
GAAAUACCAUCGGAAGACGAUGGGACGGUGCUGCUCUCCACGGUUACAGCCCAGUUUCCAGGGGCGUGUGGGCUUCGCUACAGGAAUCCA: -0.957
UGGCCCUGGUGGCAUGCGGGGAGGAAGAGGUGGCCUCAUGGAUCGUGGUGGUCCCGGUGGAAUGUUCAGAGGUGCCCGUGGUGGAGACAG: 0.208
CACAGACAACACGCACCCACACAGACACAGAGGGAAGGGGUUGGGAUGGGGACAGGGUGCACAGCAGGGAGGGGUAGGACCCCAGCCCCU: 1.19

Set 2
Target: Prothrombin, mature alpha-thrombin (F2, Homo sapiens, UniProt P00734)
Technique: aptamer microarray, sandwich
Molecule type: DNA with 2'F-ANA
Matrix: in vitro
Tested at: 200 nM
Setting: whole 15-mer aptamer, many near background
Added: Cy3 exosite-II aptamer, 400 nM
Direction: higher = stronger binding
Measurement: mean fluorescence intensity
Strand: GGTTGGTGTGGTTGG
2'F-ANA at 3 6 7 10 11 13: 482 a.u.
2'F-ANA at 2 4 6 8 9 10 11 15: 65.5 a.u.
2'F-ANA at 1 2 4 7 9 11 13 14: 57.9 a.u.
2'F-ANA at 3 4 5 8: 118 a.u.
2'F-ANA at 3 4 5 6 9: 89.9 a.u.
2'F-ANA at 4 6 10 11 12 15: 90.5 a.u.
2'F-ANA at 1 3 5 6 7 8 13 14: 48.4 a.u.
2'F-ANA at 1 2 3 5 9 11 12 13: 78.4 a.u.
2'F-ANA at 1 2 9 13: 121 a.u.
2'F-ANA at 5 6 9 13 15: 53.4 a.u.
2'F-ANA at 1 3 4 5 7 9 15: 57.8 a.u.
2'F-ANA at 1 2 3 4 12 14: 86.2 a.u.
2'F-ANA at 1 3 5 6 7 8 14 15: 48 a.u.
2'F-ANA at 1 4 5 10 12: 44.5 a.u.
2'F-ANA at 2 4 6 7 8 9 10 11 13 14: 59.9 a.u.
2'F-ANA at 2 5 6 7 9 10 11 12 14: 51.5 a.u.
2'F-ANA at 1 8 9 10 12 13 14: 47.6 a.u.
2'F-ANA at 2 3 4 5 8 10 11: 75.9 a.u.
2'F-ANA at 3 4 6 11 13 14 15: 241 a.u.
2'F-ANA at 1 2 6 7 8 9 10 11 14: 50.4 a.u.
2'F-ANA at 5 6 7 10 11 12 15: 107 a.u.
2'F-ANA at 1 5 7 8 9 12 13: 81.9 a.u.
2'F-ANA at 1 6 7 14 15: 59.3 a.u.
2'F-ANA at 1 3 6 10 12: 116 a.u.
2'F-ANA at 1 2 4 5 9 10 11 12 15: 46.7 a.u.

Set 3
Target: Histone acetyltransferase KAT6A, winged helix 2, GST fusion (KAT6A, Homo sapiens, UniProt Q92794, residues 85-181)
Technique: protein binding microarray
Molecule type: double-stranded DNA, one strand shown
Matrix: in vitro
Tested at: not given
Setting: 8-mer, flanks averaged, mean of 2 arrays, mostly near background
Relative to: not given
Direction: higher = stronger binding
Measurement: E-score
Target sequence (chain): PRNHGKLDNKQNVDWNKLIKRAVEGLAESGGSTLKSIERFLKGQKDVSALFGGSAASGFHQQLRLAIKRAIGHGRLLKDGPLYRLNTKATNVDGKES
CCGGTCCC: 0.237
CGTAAGTC: -0.207
ACTGAAGT: 0.12
GTCAATTA: 0.0122
CTTGGTAC: -0.0317
GCAGTGCC: 0.157
CTGGAAAG: -0.0136
GCGAAGCA: 0.229
ACTCGTGC: -0.149
ACTTCGCT: 0.0582
CGAGATAG: -0.119
CTTAGCGA: 0.133
CCCGTCAA: -0.0266
GCGTACGC: -0.035
ATGCTACG: 0.0715
GGAAGGCA: 0.169
CGCGAGAG: 0.1
ATATCCAG: 0.0337
GTCCCTAA: -0.0993
ACCTGCTG: 0.102
ACCTACCC: 0.0289
AAGGCCCC: 0.00633

Set 4
Target: Sal-like protein 4, full length isoform A (SALL4, Homo sapiens, UniProt Q9UJQ4, residues 1-1053)
Chain of UniProt Q9UJQ4 (whole entry, looked up): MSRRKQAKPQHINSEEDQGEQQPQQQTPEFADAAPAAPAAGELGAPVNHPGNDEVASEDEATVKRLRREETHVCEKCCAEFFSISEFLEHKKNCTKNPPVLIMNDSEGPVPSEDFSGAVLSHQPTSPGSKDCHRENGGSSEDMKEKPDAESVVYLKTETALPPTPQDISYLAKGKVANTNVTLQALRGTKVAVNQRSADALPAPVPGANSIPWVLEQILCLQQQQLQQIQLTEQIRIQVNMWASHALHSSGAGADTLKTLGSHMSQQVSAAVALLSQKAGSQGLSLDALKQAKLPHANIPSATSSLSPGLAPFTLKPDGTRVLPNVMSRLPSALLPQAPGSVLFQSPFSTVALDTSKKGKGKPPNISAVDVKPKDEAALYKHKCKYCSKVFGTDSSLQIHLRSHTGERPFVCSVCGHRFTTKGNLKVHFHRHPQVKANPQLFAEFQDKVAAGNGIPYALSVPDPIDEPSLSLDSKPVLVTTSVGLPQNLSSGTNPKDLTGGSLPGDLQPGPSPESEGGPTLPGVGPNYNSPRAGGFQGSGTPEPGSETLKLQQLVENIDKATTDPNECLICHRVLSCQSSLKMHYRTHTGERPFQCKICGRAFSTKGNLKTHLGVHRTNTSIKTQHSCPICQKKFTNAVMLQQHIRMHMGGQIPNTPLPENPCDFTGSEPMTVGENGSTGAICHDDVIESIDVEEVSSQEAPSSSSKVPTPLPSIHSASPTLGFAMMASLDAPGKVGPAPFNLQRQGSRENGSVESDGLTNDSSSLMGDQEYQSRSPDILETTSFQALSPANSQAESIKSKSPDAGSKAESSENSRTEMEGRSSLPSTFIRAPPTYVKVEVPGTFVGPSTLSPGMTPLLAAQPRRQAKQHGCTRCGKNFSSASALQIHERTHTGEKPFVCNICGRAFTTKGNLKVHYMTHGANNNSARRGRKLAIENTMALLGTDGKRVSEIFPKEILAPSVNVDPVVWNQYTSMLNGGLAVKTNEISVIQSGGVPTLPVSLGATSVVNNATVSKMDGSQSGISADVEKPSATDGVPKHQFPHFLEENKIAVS
Technique: universal PBM
Molecule type: double-stranded DNA, one strand shown
Matrix: in vitro
Tested at: 600 nM
Setting: 8-mer, flanks averaged, mean of replicates
Direction: higher = stronger binding
Measurement: E-score
ATGATGCA: 0.194
AACGTTCG: -0.0452
CACATACG: 0.0537
GTCACAAC: -0.0174
GTCAAAAC: 0.0109
AACATTCC: 0.0553
CTACGAAA: 0.079
GTGCTAAC: -0.0359
GGGGAAAC: -0.257
AAATACAC: 0.219
TACGCTCA: 0.123
GAATAGAC: 0.0399
AACCCTCC: -0.212
GTTCTCGA: 0.0317
CCGGGGGA: -0.307
ACCGTTAA: 0.125
CCAAATCC: -0.089
CGTGTACA: 0.0515
TAAGATTA: 0.267
CCTCGATC: -0.146
CTAGGCCC: -0.3
GGAGGTCA: -0.199
CATGATCC: -0.0281
AACAAACG: -0.0131
CTGCCCGA: -0.266

Some of these lines once more (set 4):
GTTCTCGA: 0.0317
GTCACAAC: -0.0174
CGTGTACA: 0.0515
CACATACG: 0.0537
AACATTCC: 0.0553
AACCCTCC: -0.212
TAAGATTA: 0.267
